Measurements collected from several papers.
Numbers after ± are the reported error.
Organism: Plasmodium falciparum

| SMILES | test | system | setting | EC50 |
| --- | --- | --- | --- | --- |
| COc1ncc(Nc2ccnc3ccc(-c4ccc(S(=O)(=O)N5CCOCC5)cc4)cc23)cn1 | parasite growth, SYBR Green | D6 | – | 760 nM |
| CCn1cc(C2CC2)c2c(Cc3cnc(C(F)(F)F)c(C)c3)n(C)nc2c1=O | parasite growth | 3D7 | – | 4.4 nM |
| COCC(=O)N1CCCC(S(=O)(=O)NCc2nc(-c3ccccc3)cs2)C1 (racemic) | SYBR Green growth | asexual blood-stage parasites, 3D7 | 72 h | > 5000 nM |
| Cn1nc2c(=O)n(C3CC3)cnc2c1[C@](O)(c1cnc(C(F)(F)F)c(Cl)c1)C(F)(F)F | parasite growth, parasite reduction ratio | 3D7 | – | 0.6 nM |
| C[C@H]1[C@@H](C(=O)NCc2nc(-c3ccc(C#N)cc3)cs2)CCCN1C(=O)[C@H]1CCC(=O)O1 | SYBR Green growth | asexual blood-stage parasites, 3D7 | 72 h | 5.5 ± 0.12 nM |
| COc1cc(C(=O)N(C)C)ccc1-c1cc2nccc(-c3ccc4ccncc4c3)c2o1 | parasite growth, LDH colorimetric | 3D7 Hyp1-Nluc | 72 h | 906 nM |
| O=S(=O)(c1ccc(-c2ccc3nccc(Nc4ccccn4)c3c2)cc1)N1CCOCC1 | parasite growth, SYBR Green | W2 | – | 1500 nM |
| NCCOCC(=O)N1CCC[C@H](C(=O)NCc2nc(-c3ccc(C(F)(F)F)cc3)cs2)C1 | SYBR Green growth | asexual blood-stage parasites, 3D7 | 72 h | 21 ± 5.5 nM |
| Cc1c(Cc2ccc(C(F)(F)F)nc2)c[nH]c1C(=O)N[C@@H](C)C(N)=O | parasite growth | 3D7 | – | > 10000 nM |
| CCN(c1ccc(C)cc1)c1ccc(NC(=O)CN(C)c2ccccc2N2CCCC2=O)cn1 | ring-stage invasion, nanoluciferase | 3D7 NanoLuc late schizonts | 4 h pulse | 5 nM |
| CCn1cc(C2CC2)c2c(CN3CCC(F)(F)C(C)(C)C3)n(C)nc2c1=O | parasite growth | 3D7 | – | 15.8 nM |
| CCn1nccc1Nc1ccnc2ccc(-c3ccc(S(=O)(=O)N4CCOCC4)cc3)cc12 | parasite growth, SYBR Green | D6 | – | 3400 nM |
| COCC(=O)N1CCCC(C(=O)NCc2nc(-c3ccccc3)cs2)C1 (racemic) | – | Dd2 bulk culture after selection | concentration not given, intermittent drug pressure, pulse 1 | 120 nM |
| CNC(C)(C)COCC(=O)N1CCC[C@H](C(=O)NCc2nc(-c3ccc(C(F)(F)F)cc3)cs2)C1 | SYBR Green growth | asexual blood-stage parasites, 3D7 | 72 h | 18 ± 4.9 nM |
| O=S(=O)(c1ccc(-c2ccc3nccc(Nc4cnccn4)c3c2)cc1)N1CCOCC1 | parasite growth, SYBR Green | TM91C235 | – | > 20000 nM |
| COCC(=O)N1CCC[C@H](C(=O)NCc2nc(-c3ccc(OC(F)(F)F)cc3)cs2)C1 | SYBR Green growth | asexual blood-stage parasites, 3D7 | 72 h | 23 ± 3.5 nM |
| Cc1noc(C)c1Nc1ccnc2ccc(-c3ccc(S(=O)(=O)N4CCOCC4)cc3)cc12 | parasite growth, SYBR Green | D6 | – | > 20000 nM |
| CC1(C)CCC(C(=O)NCc2nc(-c3ccc(C#N)cc3)cs2)CN1C(=O)COCCF (racemic) | SYBR Green growth | asexual blood-stage parasites, 3D7 | 72 h | 91 ± 32 nM |
| Cc1cc(Nc2ccnc3ccc(-c4ccc(S(=O)(=O)N5CCOCC5)cc4)cc23)sn1 | parasite growth, SYBR Green | TM91C235 | – | 470 nM |
| O=C(NCc1nc(-c2ccccc2)cs1)[C@H]1CCCN(C(=O)[C@@H]2CCCO2)C1 | SYBR Green growth | asexual blood-stage parasites, 3D7 | 72 h | > 5000 nM |
| CC(=O)Nc1cc(Oc2ccc3nc(Nc4ccc(F)cc4F)n(C)c3n2)ccn1 | parasite growth, SYBR Green I | Dd2 | 72 h | > 5000 nM |
| O=S(=O)(c1ccc(-c2ccc3nccc(Nc4cccnc4)c3c2)cc1)N1CCOCC1 | parasite growth, SYBR Green | W2 | – | 1000 nM |
